{"data": "Measured values collected from several papers", "note": "Numbered parts are unrelated; each lists some results of a single study. Substitutions count along the parent as printed."}
{"data": "Series 1", "target": "CCNB2, cyclin fold, Cln2 fusion (human)", "technique": "yeast growth competition, sequencing", "matrix": "yeast", "setting": "strong parent motif", "relative to": "not given", "direction": "higher = stronger binding", "starting sequence": "PKMYT1 docking peptide (human); SFEPRNLLSLFED; partner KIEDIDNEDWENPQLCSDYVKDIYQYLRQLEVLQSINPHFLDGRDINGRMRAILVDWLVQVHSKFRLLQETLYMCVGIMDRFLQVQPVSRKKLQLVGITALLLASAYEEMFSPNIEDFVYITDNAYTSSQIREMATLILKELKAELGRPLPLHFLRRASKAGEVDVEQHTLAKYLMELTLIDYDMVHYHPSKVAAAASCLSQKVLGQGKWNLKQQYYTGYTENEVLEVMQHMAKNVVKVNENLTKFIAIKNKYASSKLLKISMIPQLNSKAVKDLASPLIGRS"}
{"Variant": "E12P", "normalised enrichment score": -0.615}
{"Variant": "S9D", "normalised enrichment score": 1.16}
{"Variant": "L10M", "normalised enrichment score": 1.24}
{"Variant": "F2Y", "normalised enrichment score": -0.105}
{"Variant": "L10A", "normalised enrichment score": 1.63}
{"Variant": "F11A", "normalised enrichment score": -0.32}
{"Variant": "E3W", "normalised enrichment score": 0.931}
{"data": "Series 2", "target": "Sal-like protein 4, full length isoform A (SALL4, Homo sapiens, UniProt Q9UJQ4, residues 1-1053)", "technique": "universal PBM", "molecule type": "double-stranded DNA, one strand shown", "matrix": "in vitro", "tested at": "600 nM", "setting": "8-mer, flanks averaged, mean of replicates", "direction": "higher = stronger binding", "chain of UniProt Q9UJQ4 (whole entry, looked up)": "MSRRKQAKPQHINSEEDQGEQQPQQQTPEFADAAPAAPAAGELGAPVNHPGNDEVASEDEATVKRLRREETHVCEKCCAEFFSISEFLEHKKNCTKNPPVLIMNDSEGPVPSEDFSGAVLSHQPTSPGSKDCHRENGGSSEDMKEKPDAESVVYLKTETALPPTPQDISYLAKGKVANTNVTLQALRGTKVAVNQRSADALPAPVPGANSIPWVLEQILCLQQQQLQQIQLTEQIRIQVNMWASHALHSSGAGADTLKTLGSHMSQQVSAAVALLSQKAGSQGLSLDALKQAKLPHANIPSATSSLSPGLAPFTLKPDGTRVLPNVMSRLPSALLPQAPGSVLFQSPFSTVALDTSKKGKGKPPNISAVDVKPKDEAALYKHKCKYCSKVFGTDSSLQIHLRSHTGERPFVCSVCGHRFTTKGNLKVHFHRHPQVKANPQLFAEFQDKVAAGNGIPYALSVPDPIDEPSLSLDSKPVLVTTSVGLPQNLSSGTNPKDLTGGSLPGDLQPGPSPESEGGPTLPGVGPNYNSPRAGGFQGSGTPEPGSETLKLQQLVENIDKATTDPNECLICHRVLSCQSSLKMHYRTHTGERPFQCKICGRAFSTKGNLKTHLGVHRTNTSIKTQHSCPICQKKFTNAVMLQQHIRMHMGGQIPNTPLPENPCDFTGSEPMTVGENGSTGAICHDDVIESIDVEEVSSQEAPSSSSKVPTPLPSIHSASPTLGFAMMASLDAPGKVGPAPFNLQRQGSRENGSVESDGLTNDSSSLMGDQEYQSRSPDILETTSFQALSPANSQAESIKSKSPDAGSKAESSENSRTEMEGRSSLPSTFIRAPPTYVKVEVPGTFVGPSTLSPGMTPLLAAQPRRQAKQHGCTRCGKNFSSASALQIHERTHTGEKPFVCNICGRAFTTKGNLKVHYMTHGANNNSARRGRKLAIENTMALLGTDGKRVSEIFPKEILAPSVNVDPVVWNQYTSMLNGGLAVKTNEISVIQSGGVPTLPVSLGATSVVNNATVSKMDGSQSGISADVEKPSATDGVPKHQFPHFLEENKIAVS"}
{"Sequence": "AACGTCAA", "E-score": 0.225}
{"Sequence": "ACTACTCT", "E-score": -0.0184}
{"Sequence": "GGGGGTTA", "E-score": -0.172}
{"Sequence": "GCGTCGGA", "E-score": -0.267}
{"Sequence": "AAGTTACG", "E-score": 0.133}
{"Sequence": "ACCTGCGA", "E-score": -0.0982}
{"Sequence": "AGTACAGC", "E-score": -0.0899}
{"Sequence": "CAGACGTC", "E-score": -0.187}
{"Sequence": "AGGCGGGG", "E-score": -0.176}
{"data": "Series 3", "target": "Interferon regulatory factor 3, full length, phosphomimetic (IRF3, Homo sapiens, UniProt Q14653, residues 1-427, S386D/S396D/S398D/S402D/T404D/S405D)", "technique": "protein-binding microarray", "molecule type": "double-stranded DNA, one strand shown", "matrix": "in vitro", "tested at": "2540 nM top", "setting": "60-bp whole probe", "added": "salmon DNA 0.4 mg/ml", "relative to": "random background probes", "direction": "higher = stronger binding", "constant ends, left off below": "GCCTAGCAC … GTCTTGATTCGCTTGACGCTGCTG", "Construct (chain)": "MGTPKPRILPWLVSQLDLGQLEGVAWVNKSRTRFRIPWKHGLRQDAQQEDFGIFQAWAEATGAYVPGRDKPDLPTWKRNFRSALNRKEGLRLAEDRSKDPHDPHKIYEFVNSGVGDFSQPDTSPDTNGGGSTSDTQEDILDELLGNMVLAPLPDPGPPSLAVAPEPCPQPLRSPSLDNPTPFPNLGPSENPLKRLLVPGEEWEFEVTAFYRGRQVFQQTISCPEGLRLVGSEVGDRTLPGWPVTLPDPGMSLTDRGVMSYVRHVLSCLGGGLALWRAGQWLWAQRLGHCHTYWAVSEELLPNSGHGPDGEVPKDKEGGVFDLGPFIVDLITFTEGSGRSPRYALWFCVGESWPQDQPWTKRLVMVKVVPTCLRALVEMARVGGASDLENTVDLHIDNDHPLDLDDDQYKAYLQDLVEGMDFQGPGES"}
{"Sequence": "TTAGTTTTCAGACTGGATTAGTGCTAG", "fitted relative affinity [z-score]": 2.53}
{"Sequence": "TTAGAACTGGGGGTTCGATTAGTGCTA", "fitted relative affinity [z-score]": -0.214}
{"Sequence": "TTAGGTCTCCTTCTCCTTCAGTGCTAG", "fitted relative affinity [z-score]": 4.05}
{"Sequence": "TCACTTCTCTTTTGGCTACTGTGCTAG", "fitted relative affinity [z-score]": 2.64}
{"Sequence": "GACCGTTTCGGTATCGGGACGTGCTAG", "fitted relative affinity [z-score]": 7.23}
{"Sequence": "ATAGATATCAGTATCGATTAGTGCTAG", "fitted relative affinity [z-score]": 2.09}
{"Sequence": "GACGGTCTCGGTTTCGCGACGTGCTAG", "fitted relative affinity [z-score]": 2.8}
{"data": "Series 4", "Substance": "PhoQ, residues 284 288 289 292 302 303 ALSMDL", "technique": "Sort-seq", "measured": "YFP reporter", "matrix": "E. coli", "setting": "PhoQ-PhoP variant library", "added": "10 µM Mg2+", "relative to": "high Mg2+ state", "direction": "higher = stronger signaling"}
{"target": "PhoP, residues 12 14 15 18 19 NYFRM (Escherichia coli, UniProt P23836)", "fold induction": 16.3}
{"target": "PhoP, residues 12 14 15 18 19 QYFSL (Escherichia coli, UniProt P23836)", "fold induction": 7.68}
{"target": "PhoP, residues 12 14 15 18 19 TQALL (Escherichia coli, UniProt P23836)", "fold induction": 9.55}
